Assay results from different studies.
A part holds a random share of what one study measured.
UniProt O95819, sequence (whole entry, looked up): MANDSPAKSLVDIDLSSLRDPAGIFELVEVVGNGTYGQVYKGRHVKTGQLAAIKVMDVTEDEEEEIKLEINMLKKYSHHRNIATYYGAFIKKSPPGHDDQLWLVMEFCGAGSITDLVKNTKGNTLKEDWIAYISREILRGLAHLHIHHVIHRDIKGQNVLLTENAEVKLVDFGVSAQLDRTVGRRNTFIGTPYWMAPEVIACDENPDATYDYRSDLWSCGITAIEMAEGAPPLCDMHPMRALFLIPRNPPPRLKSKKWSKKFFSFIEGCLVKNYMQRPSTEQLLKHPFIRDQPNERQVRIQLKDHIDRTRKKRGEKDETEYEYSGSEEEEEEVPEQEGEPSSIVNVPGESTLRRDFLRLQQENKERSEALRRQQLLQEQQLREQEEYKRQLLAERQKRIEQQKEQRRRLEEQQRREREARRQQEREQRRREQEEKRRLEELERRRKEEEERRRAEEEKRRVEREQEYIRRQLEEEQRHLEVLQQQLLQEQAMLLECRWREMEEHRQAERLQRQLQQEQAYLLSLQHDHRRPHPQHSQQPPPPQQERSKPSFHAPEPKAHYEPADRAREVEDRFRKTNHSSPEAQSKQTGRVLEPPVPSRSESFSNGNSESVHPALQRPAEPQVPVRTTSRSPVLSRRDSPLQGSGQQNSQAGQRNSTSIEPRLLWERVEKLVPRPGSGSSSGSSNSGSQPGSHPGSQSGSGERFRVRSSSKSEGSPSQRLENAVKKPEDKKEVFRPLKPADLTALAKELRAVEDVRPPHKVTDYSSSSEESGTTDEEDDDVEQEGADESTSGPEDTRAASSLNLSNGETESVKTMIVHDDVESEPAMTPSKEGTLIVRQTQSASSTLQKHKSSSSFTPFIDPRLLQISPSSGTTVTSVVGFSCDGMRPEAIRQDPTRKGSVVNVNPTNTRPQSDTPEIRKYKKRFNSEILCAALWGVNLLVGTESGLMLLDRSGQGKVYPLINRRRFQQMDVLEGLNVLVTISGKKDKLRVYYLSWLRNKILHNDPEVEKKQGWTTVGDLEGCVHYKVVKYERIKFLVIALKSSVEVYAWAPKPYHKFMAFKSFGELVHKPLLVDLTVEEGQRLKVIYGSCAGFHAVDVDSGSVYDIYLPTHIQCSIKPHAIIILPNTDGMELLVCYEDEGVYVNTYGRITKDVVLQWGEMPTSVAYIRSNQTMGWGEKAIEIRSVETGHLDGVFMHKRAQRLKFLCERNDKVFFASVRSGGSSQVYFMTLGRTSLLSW
UniProt P54760, sequence (whole entry, looked up): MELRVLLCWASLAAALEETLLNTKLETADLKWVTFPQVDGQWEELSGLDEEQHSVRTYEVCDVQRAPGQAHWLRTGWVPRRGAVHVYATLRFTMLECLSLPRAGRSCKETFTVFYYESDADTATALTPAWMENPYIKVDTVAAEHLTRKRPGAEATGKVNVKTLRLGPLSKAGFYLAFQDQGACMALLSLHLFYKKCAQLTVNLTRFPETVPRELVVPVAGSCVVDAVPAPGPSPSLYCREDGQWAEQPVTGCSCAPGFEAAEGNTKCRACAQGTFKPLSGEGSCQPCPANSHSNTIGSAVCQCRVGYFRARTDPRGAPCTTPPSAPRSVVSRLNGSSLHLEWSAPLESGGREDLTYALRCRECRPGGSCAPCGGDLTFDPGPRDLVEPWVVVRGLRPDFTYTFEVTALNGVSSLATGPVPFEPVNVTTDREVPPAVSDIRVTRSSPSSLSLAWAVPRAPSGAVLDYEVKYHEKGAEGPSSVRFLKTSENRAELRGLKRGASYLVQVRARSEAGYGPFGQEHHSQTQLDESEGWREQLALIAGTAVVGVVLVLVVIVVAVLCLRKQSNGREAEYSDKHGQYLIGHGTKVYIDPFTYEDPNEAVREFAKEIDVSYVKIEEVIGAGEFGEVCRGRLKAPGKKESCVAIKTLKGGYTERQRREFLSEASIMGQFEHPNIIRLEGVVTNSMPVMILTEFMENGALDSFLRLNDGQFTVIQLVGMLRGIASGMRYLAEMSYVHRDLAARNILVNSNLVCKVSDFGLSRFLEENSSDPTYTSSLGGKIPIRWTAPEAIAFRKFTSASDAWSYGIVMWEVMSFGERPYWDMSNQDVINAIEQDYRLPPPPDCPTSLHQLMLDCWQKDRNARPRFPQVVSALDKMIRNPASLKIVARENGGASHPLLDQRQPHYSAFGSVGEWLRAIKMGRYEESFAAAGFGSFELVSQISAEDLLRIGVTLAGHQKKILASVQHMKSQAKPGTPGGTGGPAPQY
UniProt P30530, sequence (whole entry, looked up): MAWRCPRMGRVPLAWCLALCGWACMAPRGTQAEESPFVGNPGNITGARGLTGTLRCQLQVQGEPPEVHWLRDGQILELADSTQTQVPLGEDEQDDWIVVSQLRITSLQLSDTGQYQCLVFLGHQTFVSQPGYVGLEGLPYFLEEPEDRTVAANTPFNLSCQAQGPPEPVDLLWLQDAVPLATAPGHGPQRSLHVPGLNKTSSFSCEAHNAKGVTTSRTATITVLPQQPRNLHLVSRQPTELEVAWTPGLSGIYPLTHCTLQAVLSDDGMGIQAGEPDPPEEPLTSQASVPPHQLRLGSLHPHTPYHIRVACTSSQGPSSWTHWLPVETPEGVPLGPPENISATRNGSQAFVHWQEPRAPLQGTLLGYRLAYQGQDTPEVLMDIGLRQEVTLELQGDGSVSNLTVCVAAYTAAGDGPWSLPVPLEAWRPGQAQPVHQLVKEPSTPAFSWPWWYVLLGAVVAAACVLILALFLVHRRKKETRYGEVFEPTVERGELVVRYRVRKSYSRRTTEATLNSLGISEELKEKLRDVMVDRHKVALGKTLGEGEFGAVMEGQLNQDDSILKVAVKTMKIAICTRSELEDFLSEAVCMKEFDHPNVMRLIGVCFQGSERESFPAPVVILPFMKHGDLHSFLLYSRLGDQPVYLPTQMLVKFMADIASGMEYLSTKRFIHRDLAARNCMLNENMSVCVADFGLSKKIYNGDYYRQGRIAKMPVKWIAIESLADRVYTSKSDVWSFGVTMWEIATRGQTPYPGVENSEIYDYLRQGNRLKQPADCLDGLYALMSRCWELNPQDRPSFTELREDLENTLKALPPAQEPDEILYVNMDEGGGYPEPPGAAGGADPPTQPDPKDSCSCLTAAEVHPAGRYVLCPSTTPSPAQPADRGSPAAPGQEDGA
UniProt Q9UEE5, sequence (whole entry, looked up): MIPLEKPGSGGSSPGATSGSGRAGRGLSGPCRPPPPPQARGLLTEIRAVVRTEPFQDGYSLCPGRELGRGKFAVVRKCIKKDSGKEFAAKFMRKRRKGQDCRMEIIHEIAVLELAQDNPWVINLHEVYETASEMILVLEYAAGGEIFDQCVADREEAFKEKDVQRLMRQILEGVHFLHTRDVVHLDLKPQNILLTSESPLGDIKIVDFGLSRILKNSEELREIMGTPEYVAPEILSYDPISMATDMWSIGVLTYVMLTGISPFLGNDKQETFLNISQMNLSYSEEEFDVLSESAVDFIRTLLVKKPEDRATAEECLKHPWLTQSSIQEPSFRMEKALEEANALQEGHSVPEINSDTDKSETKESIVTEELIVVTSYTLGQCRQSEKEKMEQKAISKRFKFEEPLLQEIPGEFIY
UniProt P06493, sequence (whole entry, looked up): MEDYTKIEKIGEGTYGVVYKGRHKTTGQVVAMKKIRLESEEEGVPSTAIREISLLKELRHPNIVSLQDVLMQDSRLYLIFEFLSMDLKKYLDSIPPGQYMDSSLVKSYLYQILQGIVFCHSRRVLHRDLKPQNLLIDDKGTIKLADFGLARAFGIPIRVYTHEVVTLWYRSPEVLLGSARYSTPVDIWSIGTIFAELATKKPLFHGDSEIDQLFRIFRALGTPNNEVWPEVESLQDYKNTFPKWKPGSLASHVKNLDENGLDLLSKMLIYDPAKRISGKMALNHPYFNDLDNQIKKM
UniProt Q8WTQ7, sequence (whole entry, looked up): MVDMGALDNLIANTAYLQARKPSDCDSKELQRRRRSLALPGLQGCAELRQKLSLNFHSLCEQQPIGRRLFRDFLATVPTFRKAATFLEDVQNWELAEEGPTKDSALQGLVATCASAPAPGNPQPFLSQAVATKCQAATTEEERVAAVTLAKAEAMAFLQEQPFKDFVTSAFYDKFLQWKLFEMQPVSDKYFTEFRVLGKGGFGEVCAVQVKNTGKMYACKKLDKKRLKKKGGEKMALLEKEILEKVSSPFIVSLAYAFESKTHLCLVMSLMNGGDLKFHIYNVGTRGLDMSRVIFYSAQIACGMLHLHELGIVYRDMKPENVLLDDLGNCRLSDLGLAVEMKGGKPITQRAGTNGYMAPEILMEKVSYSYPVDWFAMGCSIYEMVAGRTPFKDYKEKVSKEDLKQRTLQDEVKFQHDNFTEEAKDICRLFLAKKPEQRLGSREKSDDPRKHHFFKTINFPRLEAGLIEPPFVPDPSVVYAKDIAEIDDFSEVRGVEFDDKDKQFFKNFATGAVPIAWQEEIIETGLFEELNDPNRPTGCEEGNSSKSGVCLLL
UniProt Q8NE63, sequence (whole entry, looked up): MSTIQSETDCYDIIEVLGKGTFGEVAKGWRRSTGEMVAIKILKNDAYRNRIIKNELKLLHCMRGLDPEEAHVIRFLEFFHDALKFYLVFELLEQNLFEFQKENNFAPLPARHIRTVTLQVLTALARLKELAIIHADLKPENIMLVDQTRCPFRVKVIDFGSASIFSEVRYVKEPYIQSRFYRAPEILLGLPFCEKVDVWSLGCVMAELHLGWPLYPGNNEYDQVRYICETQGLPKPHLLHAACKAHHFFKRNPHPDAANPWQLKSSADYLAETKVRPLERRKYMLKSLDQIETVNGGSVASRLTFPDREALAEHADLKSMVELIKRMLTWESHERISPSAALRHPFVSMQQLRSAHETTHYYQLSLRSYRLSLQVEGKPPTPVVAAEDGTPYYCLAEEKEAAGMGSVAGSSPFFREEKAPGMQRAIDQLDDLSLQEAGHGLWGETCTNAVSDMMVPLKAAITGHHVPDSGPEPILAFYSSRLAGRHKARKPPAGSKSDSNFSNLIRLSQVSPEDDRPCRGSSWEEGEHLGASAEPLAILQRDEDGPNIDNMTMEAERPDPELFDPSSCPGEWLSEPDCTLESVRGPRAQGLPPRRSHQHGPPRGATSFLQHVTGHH

Set 1
Cell line: HaCaT
Concentration: 100 µM
Time: 60 h
| SMILES | viability |
| --- | --- |
| O=C1CCc2cc(OCCCCc3nnnn3C3CCCCC3)ccc2N1 | 134% |
| Clc1ccc(C(Cn2ccnc2)OCc2c(Cl)cccc2Cl)c(Cl)c1 (stereo not shown) | 89.3% |
| O=C(c1ccc(F)c(F)c1Nc1ccc(I)cc1F)N1CC(O)([C@@H]2CCCCN2)C1 | 14.9% |
| CC(=O)Nc1c(I)c(NC(C)=O)c(I)c(C(=O)O)c1I | 153% |
| CC(=O)NCCCS(=O)(=O)O | 127% |
| CCOc1nc2cccc(C(=O)OC(C)OC(=O)OC3CCCCC3)c2n1Cc1ccc(-c2ccccc2-c2nnn[nH]2)cc1 (stereo not shown) | 18% |
| NCCCC(N)(C(=O)O)C(F)F (stereo not shown) | 110% |
| CN1CC(=O)N2[C@H](c3ccc4c(c3)OCO4)c3[nH]c4ccccc4c3C[C@@H]2C1=O | 158% |
| CC(=O)OCC(=O)[C@@]1(O)CC[C@H]2[C@@H]3CCC4=CC(=O)CC[C@]4(C)[C@H]3C(=O)C[C@@]21C | 129% |
| NC(N)=Nc1nc(CSCCC(N)=NS(N)(=O)=O)cs1 | 144% |
| CC(=O)N1CCN(c2ccc(OC[C@@H]3CO[C@@](Cn4ccnc4)(c4ccc(Cl)cc4Cl)O3)cc2)CC1 (racemic) | 17.4% |
| NC(=O)N1c2ccccc2C=Cc2ccccc21 | 130% |
| Nc1c(CC(=O)O)cccc1C(=O)c1ccc(Br)cc1 | 139% |

Set 2
SMILES: O=C1Nc2ccccc2/C1=C\c1c(Cl)[nH]c2ccccc12
Read-out: enzyme activity
Mode: inhibitor
Concentration: 0.5 µM
Relative to: control
| target | remaining activity |
| --- | --- |
| BLK (Homo sapiens, UniProt P51451) | 95.4% |
| PDPK1 (Homo sapiens, UniProt O15530) | 94.3% |
| EPHA4 (Homo sapiens, UniProt P54764) | 93.4% |
| Cyclin-dependent kinase 4, with cyclin D3 (CDK4, Homo sapiens, UniProt P11802) | 97.4% |
| EPHB1 (Homo sapiens, UniProt P54762) | 90.8% |
| MAPKAPK3 (Homo sapiens, UniProt Q16644) | 91.3% |
| DYRK3 (Homo sapiens, UniProt O43781) | 101% |
| Cyclin-dependent kinase 6, with cyclin D3 (CDK6, Homo sapiens, UniProt Q00534) | 104% |
| EPHB4 (Homo sapiens, UniProt P54760) | 90.2% |
| WNK3 (Homo sapiens, UniProt Q9BYP7) | 101% |
| MAP4K4 (Homo sapiens, UniProt O95819) | 75.7% |
| RPS6KA5 (Homo sapiens, UniProt O75582) | 85.5% |
| SRMS (Homo sapiens, UniProt Q9H3Y6) | 84.2% |
| STK16 (Homo sapiens, UniProt O75716) | 102% |
| Cyclin-dependent kinase 1, with cyclin B (CDK1, Homo sapiens, UniProt P06493) | 94.3% |
| CAMK2B (Homo sapiens, UniProt Q13554) | 108% |
| HIPK2 (Homo sapiens, UniProt Q9H2X6) | 96.5% |
| AXL (Homo sapiens, UniProt P30530) | 97.8% |
| PHKG1 (Homo sapiens, UniProt Q16816) | 85.4% |
| STK17A (Homo sapiens, UniProt Q9UEE5) | 95.2% |
| TSSK2 (Homo sapiens, UniProt Q96PF2) | 113% |
| HIPK4 (Homo sapiens, UniProt Q8NE63) | 98.8% |
| RPS6KA6 (Homo sapiens, UniProt Q9UK32) | 91.2% |

Set 3
Compound: C[C@H]1CC[C@H](n2c3cnccc3c3cnc(Nc4ccc5c(n4)CCN(C(=O)CO)C5)nc32)CC1
Concentration: 1 µM
| target | receptor occupancy |
| --- | --- |
| EPHB4 (Homo sapiens, UniProt P54760) | -3.37% |
| FLT3 (Homo sapiens, UniProt P36888) | 8.72% |
| ABL1 (Homo sapiens, UniProt P00519) | -11% |
| SRC (Homo sapiens, UniProt P12931) | 0.768% |
| BRAF (Homo sapiens, UniProt P15056, V600E) | -11.3% |
| TIE1 (Homo sapiens, UniProt P35590) | -7.36% |

Set 4
Structure (SMILES): CS(=O)(=O)N1CCCC(NC(=O)[C@H](CCC2CCCCC2)NC(=O)c2ccc(CNC(=O)c3cnc4ccccn34)cc2)C1 (stereo partly shown)
Read-out: cell-free assay
Method: competition with immobilised ligand
Concentration: 0.1 µM
| target | remaining binding [%] |
| --- | --- |
| STK35 (Homo sapiens, UniProt Q8TDR2) | 100 |
| IRAK1 (Homo sapiens, UniProt P51617) | 100 |
| AXL (Homo sapiens, UniProt P30530) | 96 |
| PIM1 (Homo sapiens, UniProt P11309) | 89 |
| Tyrosine-protein kinase ABL1, phosphorylated (ABL1, Homo sapiens, UniProt P00519, H396P) | 100 |
| GRK7 (Homo sapiens, UniProt Q8WTQ7) | 91 |
| DAPK1 (Homo sapiens, UniProt P53355) | 88 |
| TNK2 (Homo sapiens, UniProt Q07912) | 70 |
| CDK3 (Homo sapiens, UniProt Q00526) | 100 |
| MAP4K4 (Homo sapiens, UniProt O95819) | 100 |
| MUSK (Homo sapiens, UniProt O15146) | 91 |
| ALK (Homo sapiens, UniProt Q9UM73, L1196M) | 94 |
| Tyrosine-protein kinase JAK3, JH1 (JAK3, Homo sapiens, UniProt P52333) | 69 |
| MAPK12 (Homo sapiens, UniProt P53778) | 100 |
| RET (Homo sapiens, UniProt P07949, V804M) | 100 |
| DDR1 (Homo sapiens, UniProt Q08345) | 0.1 |
| MERTK (Homo sapiens, UniProt Q12866) | 94 |
| INSRR (Homo sapiens, UniProt P14616) | 100 |
| FLT3 (Homo sapiens, UniProt P36888, K663Q) | 100 |
| Tyrosine-protein kinase ABL1, phosphorylated (ABL1, Homo sapiens, UniProt P00519, T315I) | 100 |
| CSNK2A1 (Homo sapiens, UniProt P68400) | 100 |
| PIK3CA (Homo sapiens, UniProt P42336, E545K) | 86 |
